Results pooled from the literature.
Each line is one published result; not all experiments were run side by side. ± marks the error that the study gave.
Lanosterol 14-alpha-demethylase: Lanosterol 14-alpha-demethylase (Trypanosoma brucei brucei, UniProt Q385E8)
IDO1: Indoleamine 2,3-dioxygenase 1 (IDO1, Homo sapiens, UniProt P14902)
Sequence of UniProt P14902 (whole entry, looked up): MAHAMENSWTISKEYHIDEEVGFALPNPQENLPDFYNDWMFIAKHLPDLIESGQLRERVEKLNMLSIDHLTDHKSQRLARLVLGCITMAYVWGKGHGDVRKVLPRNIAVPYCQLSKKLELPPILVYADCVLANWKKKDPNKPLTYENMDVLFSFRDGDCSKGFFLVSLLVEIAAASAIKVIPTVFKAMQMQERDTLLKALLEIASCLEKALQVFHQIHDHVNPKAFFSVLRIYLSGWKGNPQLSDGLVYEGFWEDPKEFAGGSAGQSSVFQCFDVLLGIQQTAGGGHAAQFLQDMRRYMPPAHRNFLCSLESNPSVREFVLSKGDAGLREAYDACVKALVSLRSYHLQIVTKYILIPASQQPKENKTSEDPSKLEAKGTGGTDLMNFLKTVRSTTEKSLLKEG
SCN10A: Sodium channel protein type 10 subunit alpha (SCN10A, Homo sapiens, UniProt Q9Y5Y9)
Sequence of UniProt Q9Y5Y9 (whole entry, looked up): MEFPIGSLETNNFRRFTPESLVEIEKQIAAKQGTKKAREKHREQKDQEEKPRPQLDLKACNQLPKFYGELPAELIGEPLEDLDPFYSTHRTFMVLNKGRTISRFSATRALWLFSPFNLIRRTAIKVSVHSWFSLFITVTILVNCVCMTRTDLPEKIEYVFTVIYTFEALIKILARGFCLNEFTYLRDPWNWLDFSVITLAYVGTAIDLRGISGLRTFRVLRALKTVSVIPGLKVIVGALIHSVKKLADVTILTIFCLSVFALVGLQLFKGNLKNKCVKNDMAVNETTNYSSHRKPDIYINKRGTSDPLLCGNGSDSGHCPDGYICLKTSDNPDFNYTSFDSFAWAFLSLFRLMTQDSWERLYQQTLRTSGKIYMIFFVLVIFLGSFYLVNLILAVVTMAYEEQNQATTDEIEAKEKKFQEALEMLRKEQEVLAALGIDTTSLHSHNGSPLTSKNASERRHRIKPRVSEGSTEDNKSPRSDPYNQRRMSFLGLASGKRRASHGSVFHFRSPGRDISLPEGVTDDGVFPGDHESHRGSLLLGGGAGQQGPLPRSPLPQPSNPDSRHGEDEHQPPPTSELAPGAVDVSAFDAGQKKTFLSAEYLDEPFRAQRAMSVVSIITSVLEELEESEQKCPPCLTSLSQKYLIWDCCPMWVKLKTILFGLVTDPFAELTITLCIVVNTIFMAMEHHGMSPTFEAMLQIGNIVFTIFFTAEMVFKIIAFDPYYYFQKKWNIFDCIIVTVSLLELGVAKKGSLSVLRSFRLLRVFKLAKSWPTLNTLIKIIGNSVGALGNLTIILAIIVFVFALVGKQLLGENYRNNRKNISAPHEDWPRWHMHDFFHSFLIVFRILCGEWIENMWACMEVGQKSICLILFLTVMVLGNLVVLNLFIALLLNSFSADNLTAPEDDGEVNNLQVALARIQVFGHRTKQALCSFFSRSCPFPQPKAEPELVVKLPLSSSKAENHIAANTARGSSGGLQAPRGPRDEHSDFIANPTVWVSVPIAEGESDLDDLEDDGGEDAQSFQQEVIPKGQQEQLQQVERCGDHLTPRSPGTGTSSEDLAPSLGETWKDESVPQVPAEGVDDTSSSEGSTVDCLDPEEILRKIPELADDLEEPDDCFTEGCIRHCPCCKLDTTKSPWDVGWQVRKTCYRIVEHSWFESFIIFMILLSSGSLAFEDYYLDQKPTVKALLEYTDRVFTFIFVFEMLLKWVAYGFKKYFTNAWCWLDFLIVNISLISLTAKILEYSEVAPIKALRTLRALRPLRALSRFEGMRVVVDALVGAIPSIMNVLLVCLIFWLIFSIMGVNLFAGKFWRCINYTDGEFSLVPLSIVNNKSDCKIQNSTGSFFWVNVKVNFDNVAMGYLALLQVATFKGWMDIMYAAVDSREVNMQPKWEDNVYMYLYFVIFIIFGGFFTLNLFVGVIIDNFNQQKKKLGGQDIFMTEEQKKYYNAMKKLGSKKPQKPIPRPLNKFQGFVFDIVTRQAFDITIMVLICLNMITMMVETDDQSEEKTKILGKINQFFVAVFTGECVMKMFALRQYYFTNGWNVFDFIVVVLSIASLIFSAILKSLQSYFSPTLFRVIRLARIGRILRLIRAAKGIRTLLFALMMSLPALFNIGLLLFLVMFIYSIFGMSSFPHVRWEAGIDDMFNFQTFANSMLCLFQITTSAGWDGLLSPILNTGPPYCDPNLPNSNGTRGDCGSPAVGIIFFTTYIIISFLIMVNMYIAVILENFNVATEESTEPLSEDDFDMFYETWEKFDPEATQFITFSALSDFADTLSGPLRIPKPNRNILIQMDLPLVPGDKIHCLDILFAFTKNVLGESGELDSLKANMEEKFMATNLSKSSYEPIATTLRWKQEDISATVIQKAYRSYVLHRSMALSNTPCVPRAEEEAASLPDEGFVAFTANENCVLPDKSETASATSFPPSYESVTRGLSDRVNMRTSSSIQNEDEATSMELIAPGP
Aldo-keto reductase family 1 member B1: Aldo-keto reductase family 1 member B1 (Bos taurus, UniProt P16116)
PPO3: PPO3 (Agaricus bisporus, UniProt C7FF04)
Sequence of UniProt C7FF04 (whole entry, looked up): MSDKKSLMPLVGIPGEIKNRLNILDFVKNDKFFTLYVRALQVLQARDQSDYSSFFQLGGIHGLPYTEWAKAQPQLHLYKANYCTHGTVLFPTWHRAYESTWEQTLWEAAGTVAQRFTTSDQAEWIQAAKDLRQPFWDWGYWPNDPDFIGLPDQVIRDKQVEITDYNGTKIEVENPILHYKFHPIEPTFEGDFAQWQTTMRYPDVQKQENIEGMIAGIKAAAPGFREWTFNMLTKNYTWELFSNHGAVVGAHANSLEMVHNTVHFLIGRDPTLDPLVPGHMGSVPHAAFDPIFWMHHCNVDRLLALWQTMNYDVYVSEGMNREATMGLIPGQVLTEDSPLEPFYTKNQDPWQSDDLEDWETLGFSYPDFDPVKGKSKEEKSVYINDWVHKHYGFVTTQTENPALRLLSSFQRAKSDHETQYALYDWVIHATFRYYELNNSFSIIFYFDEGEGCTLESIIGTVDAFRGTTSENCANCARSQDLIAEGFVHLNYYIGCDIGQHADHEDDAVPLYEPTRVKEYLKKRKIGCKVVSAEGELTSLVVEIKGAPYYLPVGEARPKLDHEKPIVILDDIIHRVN
GSK3A: Glycogen synthase kinase-3 alpha (GSK3A, Homo sapiens, UniProt P49840)
Sequence of UniProt P49840 (whole entry, looked up): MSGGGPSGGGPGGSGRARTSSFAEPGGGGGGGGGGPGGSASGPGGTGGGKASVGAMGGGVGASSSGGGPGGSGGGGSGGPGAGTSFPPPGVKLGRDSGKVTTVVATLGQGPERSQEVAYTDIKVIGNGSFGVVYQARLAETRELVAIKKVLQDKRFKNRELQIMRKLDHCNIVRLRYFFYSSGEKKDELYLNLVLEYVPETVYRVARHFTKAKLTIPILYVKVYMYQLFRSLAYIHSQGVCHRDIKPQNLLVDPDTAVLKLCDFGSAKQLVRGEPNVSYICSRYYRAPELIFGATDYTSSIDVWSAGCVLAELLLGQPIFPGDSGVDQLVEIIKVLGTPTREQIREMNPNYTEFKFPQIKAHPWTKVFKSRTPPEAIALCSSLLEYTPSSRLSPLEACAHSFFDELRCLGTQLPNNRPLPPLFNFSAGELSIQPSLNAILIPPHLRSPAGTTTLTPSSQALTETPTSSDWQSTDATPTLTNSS
Genome polyprotein NS2B-NS3 protease: Genome polyprotein, NS2B-NS3 protease (Dengue virus type 2, UniProt P14340)
CHRM1: Muscarinic acetylcholine receptor M1 (CHRM1, Homo sapiens, UniProt P11229)
Sequence of UniProt P11229 (whole entry, looked up): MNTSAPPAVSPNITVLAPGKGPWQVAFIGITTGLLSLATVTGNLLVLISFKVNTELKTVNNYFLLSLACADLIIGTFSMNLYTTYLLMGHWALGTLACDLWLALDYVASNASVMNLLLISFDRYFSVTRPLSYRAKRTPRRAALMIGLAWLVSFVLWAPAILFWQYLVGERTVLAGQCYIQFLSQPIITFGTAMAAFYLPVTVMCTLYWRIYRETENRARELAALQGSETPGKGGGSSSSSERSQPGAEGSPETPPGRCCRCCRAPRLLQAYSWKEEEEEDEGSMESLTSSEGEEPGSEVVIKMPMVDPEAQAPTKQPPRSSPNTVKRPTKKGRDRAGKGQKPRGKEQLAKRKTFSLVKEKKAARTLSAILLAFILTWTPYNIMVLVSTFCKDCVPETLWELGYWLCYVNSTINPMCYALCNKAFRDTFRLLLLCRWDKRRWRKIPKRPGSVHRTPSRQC
Sequence of UniProt Q8WTS6 (whole entry, looked up): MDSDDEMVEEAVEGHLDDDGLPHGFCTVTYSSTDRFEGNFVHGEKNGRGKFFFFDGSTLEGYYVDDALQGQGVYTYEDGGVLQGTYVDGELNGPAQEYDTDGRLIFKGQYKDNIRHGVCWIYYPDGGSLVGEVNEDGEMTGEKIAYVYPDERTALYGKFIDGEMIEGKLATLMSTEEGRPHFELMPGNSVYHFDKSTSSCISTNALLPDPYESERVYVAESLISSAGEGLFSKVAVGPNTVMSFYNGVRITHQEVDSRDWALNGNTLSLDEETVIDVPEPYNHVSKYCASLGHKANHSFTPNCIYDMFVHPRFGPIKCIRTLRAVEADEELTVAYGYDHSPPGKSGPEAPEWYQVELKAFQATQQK
Sequence of UniProt P04406 (whole entry, looked up): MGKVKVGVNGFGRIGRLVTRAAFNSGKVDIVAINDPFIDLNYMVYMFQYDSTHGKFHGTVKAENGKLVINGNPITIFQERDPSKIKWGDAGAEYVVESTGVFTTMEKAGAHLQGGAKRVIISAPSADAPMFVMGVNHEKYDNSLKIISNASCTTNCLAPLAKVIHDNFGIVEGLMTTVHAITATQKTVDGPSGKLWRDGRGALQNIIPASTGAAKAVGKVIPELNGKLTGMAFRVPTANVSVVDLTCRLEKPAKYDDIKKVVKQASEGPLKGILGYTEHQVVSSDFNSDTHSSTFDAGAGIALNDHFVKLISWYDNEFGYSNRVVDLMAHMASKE
Sequence of UniProt P08033 (whole entry, looked up): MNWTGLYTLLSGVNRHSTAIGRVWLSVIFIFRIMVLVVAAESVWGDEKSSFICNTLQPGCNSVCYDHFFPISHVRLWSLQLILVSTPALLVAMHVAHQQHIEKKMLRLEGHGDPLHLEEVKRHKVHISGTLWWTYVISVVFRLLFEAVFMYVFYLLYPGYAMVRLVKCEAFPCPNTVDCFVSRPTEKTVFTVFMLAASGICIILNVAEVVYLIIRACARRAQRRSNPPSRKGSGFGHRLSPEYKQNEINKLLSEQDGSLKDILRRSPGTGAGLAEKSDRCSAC

COc1ccccc1C(Nc1nccs1)(c1ccccc1)c1ccccc1
inhibition (Gap junction beta-1 protein (Gjb1, Rattus norvegicus, UniProt P08033); gap junction channel current, inhibitor, dual whole-cell voltage clamp; N2a; 10 µM): < 20%

O=C(N[C@@H](Cn1ccnc1)c1ccc(-c2ccc(F)cc2)cc1Cl)c1ccc(-c2nnc(-c3ccccc3)o2)cc1
inhibition (Lanosterol 14-alpha-demethylase; enzyme activity, inhibitor; equimolar to enzyme, 1 h, Trypanosoma brucei CYP51, added: obtusifoliol 50 µM): inhibited

COc1ccc(-c2ccc(F)c(C(=O)NCc3nnc4ccc5ccccc5n34)c2)cc1
inhibition (IDO1; kynurenine production, inhibitor, refers to: L-kynurenine; A-375; 10 µM, 48 h, added: IFN-γ): > 50%

CC(C)NCC(O)c1ccc(O)c(O)c1.Cl (single isomer, unassigned; (-))
inhibition (SCN10A; sodium influx, inhibitor, FLIPR; HEK293; 10 µM, added: deltamethrin 10 µM): 99.2%

COc1cc(F)c(C(=O)NCc2nnc3ccc(C(F)(F)F)cn23)c(F)c1
inhibition (IDO1; kynurenine production, inhibitor, refers to: L-kynurenine; A-375; 10 µM, 48 h, added: IFN-γ): 19 ± 3%

CC(C)NCC(O)c1cc(O)cc(O)c1.CC(C)NCC(O)c1cc(O)cc(O)c1.O=S(=O)(O)O (stereo not drawn)
inhibition (SCN10A; sodium influx, inhibitor, FLIPR; HEK293; 10 µM, added: deltamethrin 10 µM): 78.5%

C/C(=N/N=c1/scc(-c2ccc([N+](=O)[O-])cc2)n1-c1c(C)cccc1C)c1ccc2c(c1)OCCO2
inhibition (Aldo-keto reductase family 1 member B1; enzyme activity, inhibitor, absorbance; 1 mM): 23%

CC(C)(C)c1cc(/C=C2\OC(=S)N(c3ccccc3)C2=O)cc(C(C)(C)C)c1O
inhibition (PPO3; enzyme activity, inhibitor; 25 µM): 8.53%

CC(C)(C)c1cnc(CSc2cnc(NC(=O)C3CCNCC3)s2)o1
inhibition (GSK3A; probe labeling, KiNativ live-cell profiling; MOLT-4; 0.25 µM): 31.6%

COc1ccc(C(=O)CN2CC(=Cc3ccccc3Cl)C(=O)C(=Cc3ccccc3Cl)C2)cc1
inhibition (Genome polyprotein NS2B-NS3 protease; protease activity; dengue virus 2; 50 µM): < 10%

CCCCCCCC(=O)NCCCC[C@H](NC(=O)[C@H](C)NC(=O)[C@H](CC(C)C)NC(=O)[C@H](CCC(N)=O)NC(=O)[C@H](CCCCN)NC(=O)[C@H](CCCNC(=N)N)NC(=O)[C@@H]1CCCN1C(=O)[C@H](C)NC(=O)[C@H](CCCCN)NC(=O)CNC(=O)CNC(=O)[C@@H](NC(=O)[C@@H]1CCC(=O)NCCCC[C@H](NC(=O)[C@H](CCSC)NC(=O)[C@H](C)NC(=O)[C@H](CCCNC(=N)N)NC(=O)[C@H](C)N)C(=O)N[C@@H]([C@@H](C)O)C(=O)N[C@@H](C)C(=O)N[C@@H](CCCNC(=N)N)C(=O)N[C@@H](CCCCN)C(=O)N1)[C@@H](C)O)C(N)=O
inhibition (Lysine-specific histone demethylase 1A, with CoREST (KDM1A, Homo sapiens, UniProt O60341); demethylase activity, inhibitor, fluorescence; 500 nM): 71 ± 3.4%

CC(CN(C)C)CN1c2ccccc2Sc2ccccc21.CC(CN(C)C)CN1c2ccccc2Sc2ccccc21.O=C(O)C(O)C(O)C(=O)O (stereo not drawn)
inhibition (SCN10A; sodium influx, inhibitor, FLIPR; HEK293; 10 µM, added: deltamethrin 10 µM): 79%

O=C(NCc1nnc2ccc(C(F)(F)F)cn12)c1cccc2cn[nH]c12
inhibition (IDO1; kynurenine production, inhibitor, refers to: L-kynurenine; A-375; 10 µM, 48 h, added: IFN-γ): 35 ± 6%

COc1ccccc1N1CCN(CC(O)COc2cccc3ccccc23)CC1.Cl.Cl (stereo not drawn)
inhibition (SCN10A; sodium influx, inhibitor, FLIPR; HEK293; 10 µM, added: deltamethrin 10 µM): 91.4%

N#Cc1ccc(-c2ccc(F)c(C(=O)NCc3nnc4ccc(C(F)(F)F)cn34)c2)cc1
inhibition (IDO1; kynurenine production, inhibitor, refers to: L-kynurenine; A-375; 10 µM, 48 h, added: IFN-γ): 24 ± 5%

O=C1/C(=C/c2ccc(O)cc2O)OC(=S)N1c1ccccc1
inhibition (PPO3; enzyme activity, inhibitor; 25 µM, added: L-tyrosine): 78%

GRTMQTARKSTGG
inhibition (Histone-lysine N-methyltransferase SETD7 (SETD7, Homo sapiens, UniProt Q8WTS6); enzyme activity, inhibitor, MALDI-TOF MS; peptide; 50 µM, 10 min preincubation, 30 min, pH 8, 37 °C, enzyme 500 nM, added: H3 1-21 peptide, SAM 30 µM): ~31%

NASC
inhibition (Glyceraldehyde-3-phosphate dehydrogenase (GAPDH, Homo sapiens, UniProt P04406); protein aggregation, turbidity; peptide; 50 µM, 48 h, 37 °C): 74.9 ± 3%

Cc1ccc(CNC(=O)c2cnn(Cc3ccc(Cn4ccccc4=O)cc3)c2)cc1
inhibition (Plasma kallikrein (KLKB1, Homo sapiens, UniProt P03952); enzyme activity, inhibitor; 0.1 µM): > 30%

CS(=O)(=O)c1ccc(COc2ccccc2-c2cc(=O)n(C3CCCCC3O)cn2)cc1 (stereo not drawn)
ΔpEC50 of ACh (CHRM1; positive allosteric modulator, IP1 accumulation; CHO-M1 cells; 1 µM, 60 min, 37 °C, added: ACh; reference: ACh alone, higher = stronger potentiation): 0.56 ± 0.1 log units

Nc1ncnc2c1ncn2[C@@H]1O[C@H](COP(=O)(O)OP(=O)(O)OP(=O)(O)O)[C@@H](O)[C@H]1O
inhibition (HerA helicase, with SIR2 (Escherichia coli, UniProt A0ABF7PQ25); NADase activity; 0.5 or 1 mM, 30 min, pH 8.0, 33 °C, added: ε-NAD+): ~50%

COc1cccc(-n2c(-c3ccc(Br)cc3)cs/c2=N/N=C(/C)c2ccc3c(c2)NC(=O)CO3)c1
inhibition (Aldo-keto reductase family 1 member B1; enzyme activity, inhibitor, absorbance; 1 mM): 27.4%

O=C(NCc1nnc2ccccn12)c1cccc2cn[nH]c12
inhibition (IDO1; kynurenine production, inhibitor, refers to: L-kynurenine; A-375; 10 µM, 48 h, added: IFN-γ): 1 ± 1%

Cn1cc(-c2ccc3c(c2)OCO3)c2ccc(-c3ccncc3)nc21
inhibition (Gag-Pol polyprotein, integrase (gag-pol, Human immunodeficiency virus type 1 group M subtype B, UniProt P04585); strand transfer; wild type; 10 µM): 71.3%

C/C(=N/N=c1/scc(-c2ccc([N+](=O)[O-])cc2)n1-c1c(C)cccc1C)c1ccc2c(c1)NC(=O)CO2
inhibition (Aldo-keto reductase family 1 member B1; enzyme activity, inhibitor, absorbance; 1 mM): 18%

COc1ccc(-c2ccc(F)c(C(=O)NCc3nnc4ccc(Cl)cn34)c2)cc1OC
inhibition (IDO1; kynurenine production, inhibitor, refers to: L-kynurenine; A-375; 10 µM, 48 h, added: IFN-γ): 24 ± 5%

O=[N+]([O-])c1ccc(-c2cs/c(=N/N=C\c3c[nH]c4ccccc34)n2-c2ccccc2)cc1
inhibition (Aldo-keto reductase family 1 member B1; enzyme activity, inhibitor, absorbance; 1 mM): < 50%

COc1cc(/C=C2\OC(=S)N(c3ccccc3)C2=O)ccc1O
inhibition (PPO3; enzyme activity, inhibitor; 25 µM, added: L-tyrosine): < 0%

NNCc1ccc(O)c(O)c1O
inhibition (Cystathionine beta-synthase (CBS, Homo sapiens, UniProt P35520); enzyme activity, inhibitor, fluorescence; 10 µM): 31%

C/C(=N/N=c1/scc(-c2ccc([N+](=O)[O-])cc2)n1-c1ccc(F)cc1)c1ccc2c(c1)NC(=O)CO2
inhibition (Aldo-keto reductase family 1 member B1; enzyme activity, inhibitor, absorbance; 1 mM): 31.7%

O=c1cc(-c2ccccc2OCc2ccc([N+](=O)[O-])cc2)ncn1C1CCCCC1O (stereo not drawn)
change in baseline activity (CHRM1; allosteric agonist, IP1 accumulation; CHO-M1 cells; 10 µM, unit not given; reference: maximum ACh response): 67.4 ± 2.8

Cc1ccnc2c1NC(=O)c1cccnc1N2C1CC1
inhibition (Gag-Pol polyprotein, reverse transcriptase (gag-pol, Human immunodeficiency virus type 1 group M subtype B, UniProt P04585); enzyme activity, inhibitor, ELISA; 10 µM): > 97%

O=C1/C(=C/c2ccc(O)cc2)OC(=S)N1c1ccccc1
inhibition (PPO3; enzyme activity, inhibitor; 25 µM): 10.2%

COc1ccc(-c2ccc(F)c(C(=O)NCc3nnc4ccc(C(F)(F)F)cn34)c2)cc1
inhibition (IDO1; kynurenine production, inhibitor, refers to: L-kynurenine; A-375; 10 µM, 48 h, added: IFN-γ): 49 ± 15%

CSc1ccc2c(c1)C(N1CCN(C)CC1)Cc1ccccc1S2.O=C(O)/C=C\C(=O)O (stereo not drawn)
inhibition (SCN10A; sodium influx, inhibitor, FLIPR; HEK293; 10 µM, added: deltamethrin 10 µM): 85.6%

COc1ccc(/C=C2\OC(=S)N(c3ccccc3)C2=O)cc1O
inhibition (PPO3; enzyme activity, inhibitor; 25 µM): 13.4%

O=C1C(=Cc2ccc(Cl)cc2Cl)CN(CC(=O)c2ccc(F)cc2)CC1=Cc1ccc(Cl)cc1Cl
inhibition (Genome polyprotein NS2B-NS3 protease; protease activity; dengue virus 2; 50 µM): < 10%

CC(C)(C)c1cnc(CSc2cnc(NC(=O)C3CCN(CC(=O)NCCOCCOCCOCCNc4cccc5c4C(=O)N(C4CCC(=O)NC4=O)C5=O)CC3)s2)o1 (stereo not drawn)
inhibition (GSK3A; probe labeling, KiNativ live-cell profiling; MOLT-4 CRBN knockout; 0.25 µM): 33.8%

O=C(N[C@@H](Cn1ccnc1)c1c(F)cc(-c2ccc(F)cc2)cc1F)c1ccc(-c2nnc(-c3ccccc3)o2)cc1
inhibition (Lanosterol 14-alpha-demethylase; enzyme activity, inhibitor; equimolar to enzyme, 1 h, Trypanosoma brucei CYP51, added: obtusifoliol 50 µM): inhibited

Repeated from above:
C/C(=N/N=c1/scc(-c2ccc([N+](=O)[O-])cc2)n1-c1c(C)cccc1C)c1ccc2c(c1)NC(=O)CO2
inhibition (Aldo-keto reductase family 1 member B1; enzyme activity, inhibitor, absorbance; 1 mM): 18%

COc1ccc(-c2ccc(F)c(C(=O)NCc3nnc4ccc(Cl)cn34)c2)cc1OC
inhibition (IDO1; kynurenine production, inhibitor, refers to: L-kynurenine; A-375; 10 µM, 48 h, added: IFN-γ): 24 ± 5%

O=[N+]([O-])c1ccc(-c2cs/c(=N/N=C\c3c[nH]c4ccccc34)n2-c2ccccc2)cc1
inhibition (Aldo-keto reductase family 1 member B1; enzyme activity, inhibitor, absorbance; 1 mM): < 50%

COc1cc(/C=C2\OC(=S)N(c3ccccc3)C2=O)ccc1O
inhibition (PPO3; enzyme activity, inhibitor; 25 µM, added: L-tyrosine): < 0%

NNCc1ccc(O)c(O)c1O
inhibition (Cystathionine beta-synthase (CBS, Homo sapiens, UniProt P35520); enzyme activity, inhibitor, fluorescence; 10 µM): 31%
